Measured values pooled from the literature.
Each line is one published result; not all experiments were run side by side. Values joined by “and” are separate records of one study, mostly repeats; a detail may differ. ± gives the spread as reported.
IDE: Insulin-degrading enzyme (IDE, Homo sapiens, UniProt P14735)
NPFFR1: Neuropeptide FF receptor 1 (NPFFR1, Homo sapiens, UniProt Q9GZQ6)
Methyl-accepting chemotaxis protein CtaA sensing domain: Methyl-accepting chemotaxis protein CtaA, sensing domain (Pseudomonas fluorescens, UniProt Q3K7T6)

SMILES | tested on | assay | test system | conditions | quantity | result
C#C[C@]1(COP(=O)(O)OP(=O)(O)OP(=O)(O)O)O[C@@H](n2cnc3c(N)nc(F)nc32)C[C@@H]1O | human PBMC tumour model | – | host not given, plasma | oral, 30 mg, single dose, fed | Tmax | 18 h
O=S(=O)(Nc1ccn(O)c(=S)c1)c1cccs1 | IDE | substrate degradation, fluorescence polarisation | – | mean of physiological substrates | Ki | 15 µM
Nc1ncnc2c1ncn2[C@@H]1O[C@H](COP(=O)(O)OP(=O)(O)OP(=O)(O)O)[C@@H](O)[C@H]1O | tRNA(His) guanylyltransferase (THG1, Saccharomyces cerevisiae, UniProt P53215, K44A) | tRNA(His) adenylylation, substrate, single-turnover kinetics | – | pH 6.0, room temperature, added: p-tRNA(His) | Kd | 4000 ± 1000 µM
CC[n+]1c(/C=C/N(C)c2ccccc2)n(-c2ccccc2)c2ccc(-c3nc4ccccc4s3)cc21 | HeLa expressing Luc-ODC | Luc-ODC degradation, inhibitor, cycloheximide chase luciferase | – | – | IC50 | 12 ± 5 µM
c1ccc(C2Cc3ccccc3N2)cc1 (centres unmarked) | HEK293 NF-κB luciferase reporter | reporter gene, item: NF-κB | – | 50 µM, 6 h, added: TNFα | inhibition | 65 ± 4.1%
C[C@@H]1CN(c2ccc(-c3cc(C(=O)NCCOCCOCCOCCOCCOCCOCCNC(=O)/C=C/c4[nH]cc(C(=O)N[C@@H](CC(N)=O)c5ccc(F)c(Cl)c5)c4-c4ccc(Cl)cc4F)ccc3F)cc2NC(=O)c2ccc(F)cc2C(F)(F)F)C[C@H](C)N1C | WDR5/DCAF1 (Homo sapiens, UniProt P61964+Q9Y4B6) | degrader, item: HiBiT-WDR5 | MV4-11 expressing HiBiT-WDR5 | 24 h | DC50 | 0.054 ± 0.018 µM
O=C(CSc1nnc(NCc2ccccc2)s1)NCC1CCCCC1 | Glutamate NMDA receptor; Grin1/Grin2a (Grin1/Grin2a, Rattus norvegicus, UniProt P35439+Q00959) | ion current, antagonist, two-electrode voltage clamp | Xenopus laevis oocytes | Schild plot, slope fixed unity | Kb | 2.06 ± 0.17 µM
CCC[C@H]1OC(=O)[C@@H]1CCCc1ccc2ccccc2c1 (racemic) | PLA2G6 (Homo sapiens, UniProt O60733) | enzyme activity, inhibitor, mixed micelle | – | 50% inhibition | XI(50) | 0.0003 mole fraction
Cc1cc(NC(=O)CS(=O)(=O)c2cn(Cc3ccccc3Cl)c3ccccc23)no1 | Chrm1 (Rattus norvegicus, UniProt P08482) | calcium signal, agonist | – | – | EC50 | ~13 µM
CCCNC(=O)[C@@H]1C[C@H](NCc2ccc(OC)cc2)CN1Cc1ccccc1Cl | Neuropeptide FF receptor 2 (Homo sapiens, UniProt Q9Y5X5) | calcium signal, antagonist, fluorescence | – | – | Kb | > 10 µM
Cc1ccc(S(=O)(=O)/C=C/C#N)cc1 | HeLa expressing Luc-ODC | Luc-ODC degradation, inhibitor, cycloheximide chase luciferase | – | – | IC50 | 0.5 ± 0.1 µM
COc1ccc(CN[C@H]2C[C@@H](C(=O)NCCc3ccc(NC(C)=O)cc3)N(Cc3ccccc3Cl)C2)cc1 | NPFFR1 | calcium mobilization, antagonist | CHO | 15 min, added: NPFF | Kb | 2.51 ± 0.08 µM
CCCC(=O)OCC | Or22a (Drosophila melanogaster, UniProt P81909) | neuronal calcium response, agonist, in vivo calcium imaging | antennal neurons | headspace vapour concentration | EC50 | 36.5 ppm
CC(C)[C@H](N)C(=O)O | Methyl-accepting chemotaxis protein CtaA sensing domain | binding, thermal shift, unfolding equilibrium | – | 25 °C | Kd | 3 ± 0.5 µM
O=C(c1ccc(Nc2nccc(-c3cc4ccccc4s3)n2)cc1)N1CCC(N2CCCC2)CC1 | HEK293 NF-κB luciferase reporter | NF-κB reporter gene, antagonist | – | 24 h, added: TNFα 5 ng/mL | EC50 | 0.852 µM
N[C@@H](CO)C(=O)O | Methyl-accepting chemotaxis protein CtaA sensing domain | binding, thermal shift, unfolding equilibrium | – | 25 °C | Kd | 5 ± 2 µM
CC(CCC[C@@H](C)[C@H]1CC[C@H]2C3=CCC4CC(=O)C=C[C@]4(C)[C@H]3CC[C@]12C)C(=O)O (some centres unmarked) | daf-12 (Caenorhabditis elegans, UniProt G5EFF5) | reporter gene, agonist, luciferase | – | – | EC50 | 0.146 µM
Cc1ccc(NS(=O)(=O)c2cccs2)c(=S)n1O | IDE | substrate degradation, fluorescence polarisation | – | mean of physiological substrates | Ki | 12 µM
CNC(=O)[C@@H]1C[C@H](NCc2ccc(OC)cc2)CN1Cc1ccccc1Cl | NPFFR1 | calcium mobilization, antagonist | CHO | 15 min, added: NPFF | Kb | > 10 µM
CC(C)[C@H](NC(=O)[C@@H]1CCCN1C(=O)[C@H](CCCNC(=N)N)NC(=O)[C@H](CS)NC(=O)[C@H](Cc1c[nH]c2ccccc12)NC(=O)[C@H](CCCNC(=N)N)NC(=O)[C@@H](Cc1ccccc1)NC(=O)[C@H](Cc1c[nH]cn1)NC(=O)[C@H](CCC(=O)O)NC(=O)[C@H](CS)NC(=O)[C@H](CS)NC(=O)[C@H](CCCCN)NC(=O)[C@@H]1CC(=O)N[C@@H](CCCNC(=N)N)C(=O)N[C@@H](C)C(=O)N[C@@H](CC(=O)O)C(=O)N[C@H](Cc2ccc(O)cc2)C(=O)N1)C(N)=O [technetium-99m labelled] | – | – | C57 mice, bone | intravenous, 0.037 MBq, 0.5 h | tissue uptake | 1.75 ± 0.29 %ID/g
NC(=O)[C@@H]1CCCC[C@@H]1C(=O)Nc1ccc(Cl)c(Cl)c1 | Grm2/Grm4 (Rattus norvegicus, UniProt P31421+P31423) | positive allosteric modulator, thallium flux | HEK293 with GIRK | added: EC20 glutamate | EC50 | 1.9 µM
C[C@H](CCC(=O)NCCS(=O)(=O)O)[C@H]1CC[C@H]2[C@@H]3CC[C@@H]4C[C@H](O)CC[C@]4(C)[C@H]3CC[C@]12C | SLC10A1 (Homo sapiens, UniProt Q14973) | transporter uptake, inhibitor, radiometric | – | – | Ki | ~5 µM and 4.28 µM
C[C@H](N)C(=O)O | Methyl-accepting chemotaxis protein CtaA sensing domain | binding, thermal shift, unfolding equilibrium | – | – | Kd | 5 ± 1 µM
